Values quoted from earlier work as cited in several papers.
Numbered parts are unrelated; values within a part may stem from several laboratories. ± gives the spread as reported.

Block 1 — organism: Cryptosporidium parvum; method: high-throughput screen; tested at: concentration not given
| SMILES | activity |
| --- | --- |
| c1cnc(N2CCN(Cc3ccc4c(c3)OCO4)CC2)nc1 | inactive |
| COc1ccccc1N1CCN(CCCNc2cc(=O)n(C)c(=O)n2C)CC1.Cl | inactive |
| C[C@H](CCC(=O)O)[C@H]1CC[C@H]2[C@@H]3C(=O)C[C@@H]4CC(=O)CC[C@]4(C)[C@H]3CC(=O)[C@]12C | inactive |

Mixed results
| SMILES | target or system | assay | system | setting | quantity | result |
| --- | --- | --- | --- | --- | --- | --- |
| Cc1c(NC(=O)c2cc(C(N)=O)nc3cc(F)ccc23)c(C(F)(F)F)nn1Cc1ccc(C#N)cc1 | PTGER4 | binding, radioligand binding Eurofins-Panlabs | – | – | IC50 | 1.12 µM |
| NC(=O)c1ccc[n+]([C@@H]2O[C@H](COP(=O)([O-])OP(=O)(O)OC[C@H]3O[C@@H](n4cnc5c(N)ncnc54)[C@H](O)[C@@H]3O)[C@@H](O)[C@H]2O)c1 | ADH1 H48S Saccharomyces cerevisiae | enzyme activity, substrate | – | pH 7.3, 30 °C | Km | 140 µM |
| CNC(=O)Nc1ccc2c(c1)C1(CC2)OC(=O)N(CC(=O)N(Cc2ccc(F)cc2)[C@@H](C)C(F)(F)F)C1=O (single isomer, unassigned) | CREBBP | biochemical activity | – | – | IC50 | 9.03 µM |
| CCOc1ccc(-c2nc3ccc(-c4nc5ccc(N6CCN(C)CC6)cc5[nH]4)cc3[nH]2)cc1 | – | – | PBS | – | fluorescence quantum yield | 0.026 ± 0.001 |
| N#CN1CC[C@H](C(=O)Nc2nc3c(s2)CN(C(=O)CN=[N+]=[N-])CC3)C1 | UCHL3 | enzyme activity | – | – | IC50 | 216 µM |
| NC(=O)C1=CN([C@@H]2O[C@H](COP(=O)(O)OP(=O)(O)OC[C@H]3O[C@@H](n4cnc5c(N)ncnc54)[C@H](O)[C@@H]3O)[C@@H](O)[C@H]2O)C=CC1 | ADH1 H48S Saccharomyces cerevisiae | enzyme activity, substrate | – | pH 7.3, 30 °C | Km | 110 µM |
| O=C(Cc1ccccc1)Nc1nnc(N2C[C@H]3C[C@@H]2CN3c2cccnn2)s1 | GLS | biochemical | – | – | IC50 | 0.031 µM |

Repeated from above (block 1):
| SMILES | activity |
| --- | --- |
| C[C@H](CCC(=O)O)[C@H]1CC[C@H]2[C@@H]3C(=O)C[C@@H]4CC(=O)CC[C@]4(C)[C@H]3CC(=O)[C@]12C | inactive |
